Results gathered from unrelated publications.
Each numbered part is a random draw from the data of one study; scales do not carry over between parts.

Set 1
Target: Fragile X messenger ribonucleoprotein 1, C-terminal low-complexity region (Fmr1, Mus musculus, UniProt P35922)
Method: RNA Bind-n-Seq
Form: RNA
Matrix: in vitro
Concentration: 200 nM
Setting: whole 134-nt RNA, ends assumed
Together with: 150 mM LiCl
Baseline: input library
Direction: higher = stronger binding
Each molecule: 7-deaza-guanosine replaces G
`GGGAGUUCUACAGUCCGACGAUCUCCUGUGCUACACAUCGUAUGUACCGAAUCGGGGAAAAAGGGGUUUGGGGAAAAAGGGGAAAGUAUUAUGUUACGCCGUUCGGAUCUGCAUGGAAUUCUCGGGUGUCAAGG` gave a log2 enrichment of -1.69.
`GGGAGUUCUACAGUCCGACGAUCCCUCAAGUCCUGUGCUACACAUCGUAUGUACCGAAUCGGUUUUUGGAGGUGGAAAGUAUUAUGUUACGCCGUUCGGAUCUGCACUUCCAGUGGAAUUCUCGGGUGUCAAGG` has a log2 enrichment of -0.195.
With `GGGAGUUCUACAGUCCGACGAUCAAAAUUUCCAGUACCUUUGUCACAAUCCUAACACAUUAUCGGGAGCAGUGUCUUCCAUAAUGUAUAAAGAACAAGGUAGUUUUUACCUACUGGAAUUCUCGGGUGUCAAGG` the log2 enrichment was -1.41.
The log2 enrichment of `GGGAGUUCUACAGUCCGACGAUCCUCAAGUCCUGUGCUACACAUCGUAUGUACCGAAUCGGUUUGGGUUUGGUUUGGAAAGUAUUAUGUUACGCCGUUCGGAUCUGCACUUCCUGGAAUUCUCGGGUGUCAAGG` is reported as -0.185.
`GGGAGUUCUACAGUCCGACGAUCCACAGACAACACGCACCCACACAGACACAGAGGGAAGGGGUUGGGAUGGGGACAGGGUGCACAGCAGAAAGGGGUAGGACCCCAGCCCCUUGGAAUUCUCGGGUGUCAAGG` gave a log2 enrichment of 0.72.
`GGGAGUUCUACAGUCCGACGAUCGAAAGAAGUAAAAACAAAUGGAAAUGCUUCGGAUAGUGGCAGGGGUGGGGGUUGCUAAGGAAAGGGUGGGAUGGGAGUGGGUAAAGAGUUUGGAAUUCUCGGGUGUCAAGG` has a log2 enrichment of 0.952.
For `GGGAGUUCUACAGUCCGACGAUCGUCCUGUGCUACACAUCGUAUGUACCGAAUCGGGGAGGGGAAAAAGGGGAAAAAGGGGAAAGUAUUAUGUUACGCCGUUCGGAUCUGCACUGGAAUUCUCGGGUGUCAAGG`, the log2 enrichment was 1.24.
With `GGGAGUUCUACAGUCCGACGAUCUAACUUUAGAGGAGGAUCUGAUGGAUAUGGCAGUGGACGUGGAUUUGGGGAUCGCUAUAAUGGGUAUGGAGGAGGACCUGGAGGUGGCAAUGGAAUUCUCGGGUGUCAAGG` the log2 enrichment was 0.397.

Set 2
Target: Histone acetyltransferase KAT6A, both winged helices, GST fusion (KAT6A, Homo sapiens, UniProt Q92794, residues 1-181)
Method: protein binding microarray
Form: double-stranded DNA, one strand shown
Matrix: in vitro
Concentration: not given
Setting: 8-mer, flanks averaged, mean of 2 arrays, mostly near background
Baseline: not given
Direction: higher = stronger binding
Construct (chain): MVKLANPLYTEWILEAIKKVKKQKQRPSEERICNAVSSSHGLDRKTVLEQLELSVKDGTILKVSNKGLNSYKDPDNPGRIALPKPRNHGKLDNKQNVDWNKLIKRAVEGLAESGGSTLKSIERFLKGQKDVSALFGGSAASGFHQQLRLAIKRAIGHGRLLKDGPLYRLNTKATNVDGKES
The E-score of `TAGATGCA` is reported as -0.0907.
For `AACAAGTC`, the E-score was -0.0987.
For `TATTTAGA`, the E-score was -0.0121.
`GACTGGTA` has an E-score of 0.0787.
The E-score of `AAACCCCA` is reported as -0.254.
`AACCTGGT` has an E-score of -0.133.
For `CTCCGATA`, the E-score was 0.084.
For `CACTGATA`, the E-score was -0.124.
With `CGCGGTTA` the E-score was 0.297.
With `GAACCCAC` the E-score was -0.0309.
With `CAGTTCGC` the E-score was 0.184.
For `CTCGGTAC`, the E-score was -0.0909.
With `GGAACAGA` the E-score was -0.073.
`ATGGCTTA` has an E-score of -0.139.
`GACTCCAA` has an E-score of -0.0885.
For `AGCTCCCT`, the E-score was -0.164.

Set 3
Target: RNA binding protein fox-1 homolog 2, RRM domain, GST-SBP tag (RBFOX2, Homo sapiens, UniProt O43251-10, residues 100-194)
Method: RNA Bind-n-Seq
Form: RNA
Matrix: in vitro
Concentration: 365 nM
Setting: natural RNA segment, single round, ends assumed
Baseline: no-protein control
Direction: higher = stronger binding
Target sequence (chain): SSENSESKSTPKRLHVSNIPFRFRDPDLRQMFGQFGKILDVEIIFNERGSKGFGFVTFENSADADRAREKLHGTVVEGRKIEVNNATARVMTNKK
Under “RBNS enrichment (R)”, `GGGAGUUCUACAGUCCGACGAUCUCCCUCCUAACAGCACGGAUUCUCUUGGGGCUCUUCUUCAGGGAAGAGUAGGGACGCCGUUCCAGCCCCCCUUCCUAUCGUGUCCUUGGGUUCGGGUCACUGCGGCGACGUGGAAUUCUCGGGUGCCAA` is recorded as 0.338.
`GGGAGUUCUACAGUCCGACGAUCGAAUGCCGAGUGUCAUAAGAAAUUGCAUGCUAUCUUCACUCACAAUCCUGCCCUUCCCUCACAGAGCUGGAACUCCAAGCCUGGCCCCAAAGACCCUCCAUCACGAAGAGUGGAAUUCUCGGGUGCCAA`: “RBNS enrichment (R)” 41.7.
`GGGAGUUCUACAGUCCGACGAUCUUGUUCGUGGGCCACCAACCCUGGAAUACGGCUGAUGGAUGGCUUUGUUGGCAACAAAACAGGAUAUUUCUCUCCUGAAUGUUGGUUUUGCAGACCCUACACAGCGGCCCUGGAAUUCUCGGGUGCCAA` — result for “RBNS enrichment (R)”: 0.285.
Under “RBNS enrichment (R)”, `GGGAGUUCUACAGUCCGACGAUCUUGUUUUUACUAGGUAGACUGGCAUCUGGGUAGAGGCUGCCUGGGAUUUUUAUCCCCACAUAACCAGGGGCCAUCUGAAAGUCAUUUUCUAGCCAGAUCAGCCACUGAGCUGGAAUUCUCGGGUGCCAA` is recorded as 0.429.
`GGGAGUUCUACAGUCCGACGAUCUCAGCAUACCAUGCCAAGGCACACCGACCUACCAGCCAAUAACUGUUCUGCCUCUGCCUUGAUACUGCCUCAGGAUUCCCUAUCCCAUACCCUGGGAAAUUUGAGGGACCUGGAAUUCUCGGGUGCCAA` — result for “RBNS enrichment (R)”: 0.269.
`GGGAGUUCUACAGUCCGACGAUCGAUUUAUGCUGGUGGAGGUGUUGUUUGUCCUAUGGAAGAUAUUUUCUACUGAGCUGGGCUACUGUACACAAUGGACAGUGUGCAUUUCUGUACAGGUUACGGUUCUAUGCUGGAAUUCUCGGGUGCCAA` — result for “RBNS enrichment (R)”: 0.587.
Under “RBNS enrichment (R)”, `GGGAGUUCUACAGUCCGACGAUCCGUCGAGUGCCAUCUUAUUUAUUUCUGGUUAAGAUGGGGCGGAGGAUGGGGGGGACGCUGCUGGUAUUCGGGUUGGGCGUUUCCCAAUAAACCACCAAUCUUCAUAUUGUUGGAAUUCUCGGGUGCCAA` is recorded as 0.399.
Under “RBNS enrichment (R)”, `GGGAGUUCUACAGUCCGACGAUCGAACGCCAACUGGAAAGGUCCCCUUCCCCAGGGGAGCCUGCGAAGGAGAGGUUCUGUAGAAUCCAAGCCCACAUUUCCAAAGUCACCCCCAACGCGUCCUCUCACACCGUUGGAAUUCUCGGGUGCCAA` is recorded as 0.552.

Set 4
Target: Phosphate system positive regulatory protein PHO4, full length, GST-tagged (PHO4, Saccharomyces cerevisiae, UniProt P07270, residues 1-312)
Method: competition protein-binding microarray
Form: double-stranded DNA, one strand shown
Matrix: in vitro
Concentration: 2 µM
Setting: whole 60-bp probe, lowest competitor level
Together with: Cbf1 competitor, 0.05 µM
Direction: higher = stronger binding
Construct (chain): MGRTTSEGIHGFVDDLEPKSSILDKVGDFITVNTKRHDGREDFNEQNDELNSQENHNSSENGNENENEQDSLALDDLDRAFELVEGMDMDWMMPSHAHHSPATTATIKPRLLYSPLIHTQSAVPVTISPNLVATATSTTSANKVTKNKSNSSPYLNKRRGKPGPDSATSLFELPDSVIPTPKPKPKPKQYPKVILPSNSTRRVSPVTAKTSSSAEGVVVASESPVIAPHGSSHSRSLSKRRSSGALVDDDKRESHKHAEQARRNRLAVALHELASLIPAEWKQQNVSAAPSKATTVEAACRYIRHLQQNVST
The fluorescence intensity of `CGTCCTAGTGATTTTCACGTGAGCTCCATGAGGAAGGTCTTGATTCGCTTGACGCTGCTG` is reported as 11400 a.u.
With `AGGGTTACCATTAAAAAGCGTCCCAGAAAAGGTGGAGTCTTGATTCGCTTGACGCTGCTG` the fluorescence intensity was 2590 a.u.
For `GTAATGCCATGGTTTCGCGTGCTTTTTTCCCCTTGCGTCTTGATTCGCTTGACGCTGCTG`, the fluorescence intensity was 6960 a.u.
`ATTCAAGCCGGTGAACATGTGGAGGTTAACGGTTCCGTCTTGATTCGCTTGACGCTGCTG` has a fluorescence intensity of 9300 a.u.
The fluorescence intensity of `TGCGCAACAACTTGGTTCGTGGGTGTATGTCTAGAAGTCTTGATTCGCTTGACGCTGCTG` is reported as 7290 a.u.
`TGCCCGCAGTGGGTCCACGTGAAATGCGAGCCTTTGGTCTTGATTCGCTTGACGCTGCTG` has a fluorescence intensity of 12700 a.u.
With `AAATTACTAAGTTGCGAAGTGGGTGACGCCGTATGAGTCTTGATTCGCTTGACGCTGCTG` the fluorescence intensity was 3210 a.u.
For `TTTCCTCTTGAGATGGACGTGCTTTAGCCGGCCGGAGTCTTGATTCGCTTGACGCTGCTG`, the fluorescence intensity was 5470 a.u.
The fluorescence intensity of `AAACGTAGTTACGGCCACGTGGGTAAGATATGAAAGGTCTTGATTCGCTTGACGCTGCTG` is reported as 21100 a.u.
`CAACCGGCCTAGCATCACATGCTGATACCACTTGTAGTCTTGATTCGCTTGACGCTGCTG` gave a fluorescence intensity of 9220 a.u.
With `GTCTTGTCTCATTGTCACTAGACTTTCCCCACTTCAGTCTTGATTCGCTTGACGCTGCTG` the fluorescence intensity was 3630 a.u.
The fluorescence intensity of `CGGGGTTAAGTTTTTCACGTGGTCTGCTTGCAGCAGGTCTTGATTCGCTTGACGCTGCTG` is reported as 11900 a.u.
With `ATAATTGTGTACCGACACGTGCAAATTTGGTACGAAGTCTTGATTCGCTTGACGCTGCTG` the fluorescence intensity was 19900 a.u.
`ATAACCATAGGAAAGCACGTGATGGTGGAAGGACAGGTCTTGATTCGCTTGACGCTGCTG` gave a fluorescence intensity of 18000 a.u.
For `CGTCCTAGTGATTGGTATGTGGGTGCCATGAGGAAGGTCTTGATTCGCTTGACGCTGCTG`, the fluorescence intensity was 7370 a.u.
For `CATACCCAACCTTGTCACGAAACTTAAGATATTTGTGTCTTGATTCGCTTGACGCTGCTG`, the fluorescence intensity was 4040 a.u.
`GCCTCCGAAGATTGGGACGTGCCAGCGGAGCAAGTTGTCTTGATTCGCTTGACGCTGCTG` has a fluorescence intensity of 6230 a.u.
`CTTATTCGTATGAAGCATGTGACGCTGGTATAAGACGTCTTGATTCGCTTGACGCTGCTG` has a fluorescence intensity of 12100 a.u.
`ATACCCTCAATTGGGCTCGTGTTGAGCAAGTTAAACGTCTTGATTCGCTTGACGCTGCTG` gave a fluorescence intensity of 10300 a.u.

Excerpt of the above (set 2):
For `CTCCGATA`, the E-score was 0.084.
For `CACTGATA`, the E-score was -0.124.
With `CGCGGTTA` the E-score was 0.297.
With `GAACCCAC` the E-score was -0.0309.
With `CAGTTCGC` the E-score was 0.184.
For `CTCGGTAC`, the E-score was -0.0909.
With `GGAACAGA` the E-score was -0.073.
`ATGGCTTA` has an E-score of -0.139.
